Assay results gathered from unrelated publications.
Compare with care: the assays were run in different laboratories. Numbers after ± are the reported error.
B1: colicin E1 T-domain (41–120); sequence looked up; chain GGSKSESSAAIHATAKWSTAQLKKTQAEQAARAKAAAEAQAKAKANRDALTQRLKDIVNEALRHNASRTPSATELAHANN

Molecule	assay	system	setting	endpoint	result
melittin	membrane partitioning, ITC enthalpy vs temperature	POPC/POPG LUVs 75:25%	concentration not given, 25 to 60 °C	heat capacity change	-0.56 kcal/mol/K
CC(C)C[C@@H]1NC(=O)[C@@H]2CSSC[C@@H](C(=O)NCC(N)=O)NC(=O)[C@H](Cc3ccccc3)NC(=O)CNC(=O)[C@H](CC(N)=O)NC(=O)[C@@H]3CCCN3C(=O)CNC(=O)[C@@H]3CSSC[C@H](NC(=O)[C@H](CO)NC(=O)[C@H]([C@@H](C)O)NC(=O)[C@@H]4CCCN4C(=O)[C@H](C)NC(=O)[C@H](Cc4c[nH]c5ccccc45)NC(=O)[C@H](CC(=O)O)NC(=O)CNC(=O)[C@H](CCCNC(=N)N)NC(=O)CNC(=O)[C@H](CCC(N)=O)NC(=O)[C@@H]4CCCN4C(=O)[C@@H](NC(=O)CNC(=O)CN4CCN(CC(=O)O)CCN(CC(=O)O)CCN(CC(=O)O)CC4)CSSC[C@H](NC(=O)CNC(=O)[C@H](C)NC1=O)C(=O)N[C@@H](C(C)C)C(=O)N3)C(=O)N[C@@H](CO)C(=O)N[C@@H](CCC(N)=O)C(=O)N[C@@H](CC(=O)O)C(=O)N[C@@H](CO)C(=O)N[C@@H](CC(=O)O)C(=O)N2 [copper-64 labelled]	microPET	female athymic nude mouse, U-87 MG xenograft, tumour	intravenous, 100 µCi, 24 h	tumour uptake	1.48 ± 0.51 %ID/g
N=C(N)NCCC[C@@H]1NC(=O)[C@H](CCCCNC(=O)[C@H](CC(=O)O)NC(=O)[C@H](CC(=O)O)NC(=O)[C@H](CC(=O)O)NC(=O)CC[C@H](NC(=O)CCOCCOCCOCCOCCNC(=O)c2ccc(NN)nc2)C(=O)N[C@@H](CC(=O)O)C(=O)N[C@@H](CC(=O)O)C(=O)N[C@@H](CC(=O)O)C(=O)NCCCC[C@@H]2NC(=O)[C@@H](Cc3ccccc3)NC(=O)[C@H](CC(=O)O)NC(=O)CNC(=O)[C@H](CCCNC(=N)N)NC2=O)NC(=O)[C@@H](Cc2ccccc2)NC(=O)[C@H](CC(=O)O)NC(=O)CNC1=O [technetium-99m labelled]	γ-counting	female athymic nude mice, U-87 MG xenograft, brain	intravenous, 0.5 h	tissue uptake	0.25 ± 0.09 %ID/g
COc1cccc2c1C(=O)c1c(O)c3c(c(O)c1C2=O)C[C@@](O)(C(=O)CO)C[C@@H]3O[C@H]1C[C@H](NC(=O)[C@@H]2CCCN2C(=O)CNC(=O)[C@H](CC(C)C)NC(=O)[C@H](C)NC(=O)CP(=O)(O)O)[C@H](O)[C@H](C)O1		mouse, E0771 tumour-bearing, tumor	intravenous, 92 µmol/kg	Tmax	5 min
CSCC[C@H](NC(=O)[C@H](CC(C)C)NC(=O)[C@H](Cc1cnc[nH]1)NC(=O)CNC(=O)[C@@H](NC(=O)[C@H](C)NC(=O)[C@H](Cc1c[nH]c2ccccc12)NC(=O)[C@H](CCC(N)=O)NC(=O)c1ccc(NC(=O)CN2CCN(CC(=O)O)CCN(CC(=O)O)CCN(CC(=O)O)CC2)cc1)C(C)C)C(N)=O		ICR SCID mouse (PC-3 tumour), urine and bladder contents	intravenous, 185 kBq, 1 h	excreted dose	78.7 ± 2.53%
CC[C@H](C)[C@H](NC(=O)[C@H](Cc1c[nH]cn1)NC(=O)[C@@H]1CSSC[C@H](NC(=O)[C@H](Cc2c[nH]cn2)NC(=O)[C@H](Cc2ccccc2)NC(=O)CCN(CCN)CCN)C(=O)N2C[C@H](O)C[C@H]2C(=O)N[C@@H](Cc2ccc(O)c(Cl)c2)C(=O)N[C@@H](CC(=O)O)C(=O)N[C@@H](CC(C)C)C(=O)N1)C(=O)N[C@@H](CC(C)C)C(=O)NCc1ccc(CNC(=O)CCN(CCN)CCN)cc1 [technetium-99m labelled]	biodistribution	Sprague-Dawley rat, male, crush model, liver	120 min	liver uptake	3.2 %ID/g
B1 (colicin E1 T-domain)	far-UV CD	peptide, 50 mM sodium phosphate		helical content	29 ± 2%
COc1cccc2c1C(=O)c1c(O)c3c(c(O)c1C2=O)C[C@@](O)(C(=O)CO)C[C@@H]3O[C@H]1C[C@H](NC(=O)[C@H](CC(C)C)NC(=O)[C@H](C)NC(=O)[C@H](CC(C)C)NC(=O)CCNC(=O)CCC(=O)O)[C@H](O)[C@H](C)O1		mouse, E0771 tumour-bearing, liver	intravenous, 92 µmol/kg	Tmax	15 min
Cc1ccccc1NC(=O)Nc1ccc(CC(=O)N[C@@H](CCCCNC(=O)/C=C/c2cccnc2)C(=O)N[C@@H](CCCC(=O)O)C(=O)NC2(C(=O)NCCOCCOCCOCCOCC(=O)N[C@@H](CCCCNC(=S)Nc3ccc(C[C@H]4CN(CC(=O)O)CCN(CC(=O)O)CCN4CC(=O)O)cc3)C(N)=O)CCCCC2)cc1 [fluorine-18 labelled]		female C57BL/6 mice, B16-F10 tumour, liver	intravenous, 1 h	tissue uptake	20.1 ± 2.6 %ID/g
CC(=O)N(O)CCCCCNC(=O)CCC(=O)N(O)CCCCCNC(=O)CCC(=O)N(O)CCCCCNC(=S)Nc1ccc(NC(=S)NCCOCCOCCOCCOCCC(=O)N[C@@H](CCC(=O)NCCOCCOCCOCCOCCC(=O)NCCCC[C@@H]2NC(=O)[C@@H](Cc3ccccc3)NC(=O)[C@H](CC(=O)O)NC(=O)CNC(=O)[C@H](CCCNC(=N)N)NC2=O)C(=O)NCCOCCOCCOCCOCCC(=O)NCCCC[C@@H]2NC(=O)[C@@H](Cc3ccccc3)NC(=O)[C@H](CC(=O)O)NC(=O)CNC(=O)[C@H](CCCNC(=N)N)NC2=O)cc1 [zirconium-89 labelled]		athymic nude mice female tumour-bearing, liver	intravenous, 100 µCi, 4 h	tissue uptake	6.81 ± 0.71 %ID/g
N=C(N)NCCC[C@@H]1NC(=O)[C@H](CCCCNC(=O)CNC(=O)CNC(=O)CNC(=O)CC[C@H](NC(=O)CCOCCOCCOCCOCCNC(=O)c2ccc(NN)nc2)C(=O)NCC(=O)NCC(=O)NCC(=O)NCCCC[C@@H]2NC(=O)[C@@H](Cc3ccccc3)NC(=O)[C@H](CC(=O)O)NC(=O)CNC(=O)[C@H](CCCNC(=N)N)NC2=O)NC(=O)[C@@H](Cc2ccccc2)NC(=O)[C@H](CC(=O)O)NC(=O)CNC1=O [technetium-99m labelled]	γ-counting	female athymic nude mice, U-87 MG xenograft, blood	intravenous, 2 h	tissue uptake	0.19 ± 0.02 %ID/g

Some of these lines once more:
Molecule	assay	system	setting	endpoint	result
N=C(N)NCCC[C@@H]1NC(=O)[C@H](CCCCNC(=O)CNC(=O)CNC(=O)CNC(=O)CC[C@H](NC(=O)CCOCCOCCOCCOCCNC(=O)c2ccc(NN)nc2)C(=O)NCC(=O)NCC(=O)NCC(=O)NCCCC[C@@H]2NC(=O)[C@@H](Cc3ccccc3)NC(=O)[C@H](CC(=O)O)NC(=O)CNC(=O)[C@H](CCCNC(=N)N)NC2=O)NC(=O)[C@@H](Cc2ccccc2)NC(=O)[C@H](CC(=O)O)NC(=O)CNC1=O [technetium-99m labelled]	γ-counting	female athymic nude mice, U-87 MG xenograft, blood	intravenous, 2 h	tissue uptake	0.19 ± 0.02 %ID/g
